# Measurements from different studies.
# Parts stem from different laboratories: compare values within a part only.

# Block 1 — observed: enzyme activity; action: inhibitor; method: radiometric; tested at: 0.5 µM
# Target: Leukocyte tyrosine kinase receptor (LTK, Homo sapiens, UniProt P29376)
# Sequence of UniProt P29376 (whole entry, looked up): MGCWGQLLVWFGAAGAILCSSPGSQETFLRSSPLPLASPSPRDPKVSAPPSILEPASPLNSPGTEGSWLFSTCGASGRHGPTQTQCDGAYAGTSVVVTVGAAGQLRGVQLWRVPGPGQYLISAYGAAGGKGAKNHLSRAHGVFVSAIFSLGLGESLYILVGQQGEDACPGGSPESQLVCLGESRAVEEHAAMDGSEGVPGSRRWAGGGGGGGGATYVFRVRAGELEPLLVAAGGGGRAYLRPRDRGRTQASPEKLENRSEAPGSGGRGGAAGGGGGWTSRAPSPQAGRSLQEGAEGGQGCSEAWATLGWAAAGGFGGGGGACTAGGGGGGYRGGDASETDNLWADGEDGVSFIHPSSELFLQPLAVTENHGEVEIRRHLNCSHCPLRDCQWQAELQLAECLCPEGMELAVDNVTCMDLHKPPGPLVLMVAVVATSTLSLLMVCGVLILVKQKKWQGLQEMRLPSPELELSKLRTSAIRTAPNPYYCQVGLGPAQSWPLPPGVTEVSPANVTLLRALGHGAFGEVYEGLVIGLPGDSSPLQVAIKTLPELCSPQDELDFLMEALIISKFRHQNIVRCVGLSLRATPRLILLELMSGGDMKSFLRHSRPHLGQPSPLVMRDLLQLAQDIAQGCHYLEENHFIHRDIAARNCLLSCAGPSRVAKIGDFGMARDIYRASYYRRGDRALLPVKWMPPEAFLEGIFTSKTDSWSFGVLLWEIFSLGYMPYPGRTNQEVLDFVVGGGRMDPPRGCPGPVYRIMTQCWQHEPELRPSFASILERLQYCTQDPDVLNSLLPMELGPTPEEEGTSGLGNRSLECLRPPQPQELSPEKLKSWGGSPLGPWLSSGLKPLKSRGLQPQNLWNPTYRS
SMILES,remaining activity
O=C(O)/C=C/c1cc(Br)c(Br)c(Br)c1Br,94.5%
N#C/C(=C(/N)SC1C=CC=CC1)c1cccc(C(O)c2ccncc2)c1 (centres unmarked),92.8%
FC(F)(F)c1ccc(/C=C/c2nc(COc3ccc(CCCCn4ccnn4)cc3)co2)cc1,104%
NC(=O)c1cccc(-c2cc(Nc3ccc(OC(F)(F)F)cc3)ncn2)c1,111%
CC(C)n1cnc2c(Nc3cccc(Cl)c3)nc(NCCO)nc21,85.3%
C[C@@H](N)[C@H]1CC[C@H](C(=O)Nc2ccncc2)CC1,90.7%
O=C1NC(=O)/C(=C/c2ccc3c(c2)OC(F)(F)O3)S1,95.5%
CC(C)(C)c1nc2c3cc[nH]c(=O)c3c3cc(F)ccc3c2[nH]1,20.6%
O=C1c2ccccc2-c2nc3nnnn3nc21,177%
CCn1cnc2c(Nc3cccc(Cl)c3)nc(N[C@H]3CCCC[C@H]3N)nc21,93.8%
COc1cc2c(Nc3ccc(Br)cc3F)ncnc2cc1OCC1CCN(C)CC1,64.6%
Clc1ccc(Nc2nnc(Cc3ccncc3)c3ccccc23)cc1,105%
O=C(c1ccccc1)c1ccc(N2CCOCC2)cc1O,107%

# Block 2 — observed: cell-free assay; method: competition with immobilised ligand; tested at: 1 µM
# Target: Cyclin-dependent kinase 2 homolog (CRK2, Plasmodium falciparum, UniProt P61075)
# Sequence of UniProt P61075 (whole entry, looked up): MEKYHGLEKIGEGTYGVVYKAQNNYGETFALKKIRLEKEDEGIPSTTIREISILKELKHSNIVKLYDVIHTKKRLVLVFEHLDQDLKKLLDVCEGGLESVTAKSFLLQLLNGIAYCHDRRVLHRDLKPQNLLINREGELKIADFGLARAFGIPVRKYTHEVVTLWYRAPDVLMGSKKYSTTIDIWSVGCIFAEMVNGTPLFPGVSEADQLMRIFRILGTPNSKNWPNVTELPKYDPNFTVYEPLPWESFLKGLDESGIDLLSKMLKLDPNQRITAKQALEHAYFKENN
SMILES,remaining binding [%]
O=C(Nc1cnc(Oc2ccc(F)cc2)nc1)N1CCc2ncccc2[C@@H]1c1ccc(F)cc1,100
NS(=O)(=O)c1cc(NC(=O)C2(c3ccccc3Cl)CC2)ccc1Oc1cccc(Cl)c1,93
CO[C@@H](C)c1c(Nc2ccc([C@@H](N(C)C(=O)C3CCS(=O)(=O)CC3)C(F)(F)F)cc2)cnc2cc(Cl)nn12,100
O=C(N1CCS(=O)(=O)CC1)N1C[C@H](c2ccc(OC(F)(F)F)cc2)C[C@H](c2nc(C3CC3)no2)C1,100

# Block 3 — cell line: A-375; tested at: 100 µM; time: 18 h
SMILES,viability [%]
CCN(CC)C(C)C(=O)c1ccccc1 (centres unmarked),95.1
C[C@@H](CO)NC(=O)[C@@H]1C=C2c3cccc4[nH]cc(c34)C[C@H]2N(C)C1,87.9
CN[C@H]1C[C@@H](N)[C@H](O)[C@@H](O[C@@H]2O[C@H](CO)[C@H](O)[C@@H]3OC4(O[C@H]23)O[C@H]([C@@H](N)CO)[C@H](O)[C@H](O)[C@H]4O)[C@@H]1O (some centres unmarked),75.7
CN(C(=O)/C=C/c1ccoc1)[C@@H]1CC[C@@]2(O)[C@H]3Cc4ccc(O)c5c4[C@@]2(CCN3CC2CC2)[C@H]1O5,95.8
O=C(O)c1nn(Cc2ccc(Cl)cc2Cl)c2ccccc12,109
CCCCC(C#N)(Cn1cncn1)c1ccc(Cl)cc1 (centres unmarked),32

# Block 4 — cell line: HEK-293T/ACE2; method: Hoechst nuclei count; tested at: concentration not given; time: 16 (unit not given); baseline: vehicle
SMILES,viability [%]
CCn1cc(C(=O)O)c(=O)c2cc(F)c(N3CCNCC3)nc21,101
C[C@]12Cc3c[nH]nc3C[C@@H]1CC[C@@H]1[C@@H]2CC[C@@]2(C)[C@H]1CC[C@]2(C)O,99.9
N=C1CCCN1Cc1[nH]c(=O)[nH]c(=O)c1Cl,106
CC(=O)Nc1cccc(-n2c(=O)n(C3CC3)c(=O)c3c(Nc4ccc(I)cc4F)n(C)c(=O)c(C)c32)c1,99.2
Cc1ccccc1C(=O)Nc1ccc(C(=O)N2CCCC(O)c3cc(Cl)ccc32)c(C)c1 (centres unmarked),102
CC(=O)c1ccc2c(c1)N(CCCN1CCC(CCO)CC1)c1ccccc1S2,102
O=C1CCCC(=O)C1C(=O)c1ccc(C(F)(F)F)cc1[N+](=O)[O-],106
CC(=O)O[C@H]1C(=O)[C@@]2(C)[C@H]([C@H](OC(=O)c3ccccc3)[C@]3(O)C[C@H](OC(=O)[C@H](O)[C@@H](NC(=O)c4ccccc4)c4ccccc4)C(C)=C1C3(C)C)[C@]1(OC(C)=O)CO[C@@H]1C[C@@H]2O,80.8
CCN(CC)C(=O)[C@@]1(c2ccccc2)C[C@H]1CN,104
CC(=O)c1c(C)c2cnc(Nc3ccc(N4CCNCC4)cn3)nc2n(C2CCCC2)c1=O,98.6
Nc1cccc2c1C(=O)N(C1CCC(=O)NC1=O)C2=O (centres unmarked),103
C[C@H](Cc1cc2c(c(C(N)=O)c1)N(CCCO)CC2)NCCOc1ccccc1OCC(F)(F)F,96.8

# Excerpt of the above (block 1):
SMILES,remaining activity
C[C@@H](N)[C@H]1CC[C@H](C(=O)Nc2ccncc2)CC1,90.7%
Clc1ccc(Nc2nnc(Cc3ccncc3)c3ccccc23)cc1,105%
COc1cc2c(Nc3ccc(Br)cc3F)ncnc2cc1OCC1CCN(C)CC1,64.6%
